Measurements of several laboratories.
Each line is one published result; not all experiments were run side by side. Several values in a cell are separate wells, animals, samples, runs or records. Numbers after ± are the reported error.

Structure (SMILES)	cell line	test	test system	conditions	scale	endpoint	value
COCC(=O)N1CCC[C@H](C(=O)NCc2nc(-c3ccc(C#N)cc3)cs2)C1	Jurkat	CellTiter-Glo	–	72 h	–	CC50	> 50 µM
N=C(CCl)NCCC[C@H](NC(=O)c1ccc2ccc(O)cc2c1)C(=O)NCc1ccccc1	A549 and MDA-MB-231	MTT	–	48 h, 10% FBS	baseline: CC50 over PAD4 IC50	therapeutic index	> 400 fold
COCC(=O)N1CCC[C@@H](C(=O)NCc2nc(-c3ccccc3)cs2)C1	Jurkat	CellTiter-Glo	–	72 h	–	CC50	> 50 µM
Cc1cc(NC(=O)Nc2ccc3c(c2)OC(F)(F)O3)cc(C(F)(F)F)n1	THP-1, undifferentiated	cytotoxicity	–	–	–	IC50	17 µM
Cc1cnc(CNC(=O)c2c(=O)c3ccc(N4CCCN(C)CC4)nc3n3c2sc2ccccc23)cn1	MA104	cytotoxicity, resazurin	–	5 days	–	CC50	0.88 ± 0.1 µM
COC(=O)N[C@H](C(=O)N1CCC[C@H]1c1nc(-c2ccc(-c3ccc(-c4c[nH]c([C@@H]5CCCN5C(=O)[C@@H](NC(=O)OC)C(C)C)n4)cc3)cc2)c[nH]1)C(C)C	MDBK	–	–	–	–	CC50	36 µM
Cc1cc(C)c(NC(=O)CN(CC(=O)[O-])CC(=O)[O-])c(C)c1Br.Cc1cc(C)c(NC(=O)CN(CC(=O)[O-])CC(=O)[O-])c(C)c1Br.[99Tc+4]	human sandwich-cultured hepatocytes	–	–	–	–	uptake clearance	23.7 ± 12.1 mL/min/kg
O=C(O)c1ccc(NCc2ccccc2)cc1	HGF	cell viability, resazurin	–	72 h, 10% FBS	–	IC50	> 100 µM
NCCCN	HCT-8	Hoechst nuclei count	–	1 mM, 24 h	baseline: PBS	host cell number	1.01 ± 0.046
Cc1ccc(Nc2cnnc3ccc(-c4ccc(N5CCN(C)CC5)cc4)cc23)cn1	C2C12 mouse myoblasts	cytotoxicity	–	–	–	TC50	5.1 µM
CC1(C)CCC(c2ccc(Cl)cc2)=C(CN2CCN(c3ccc(C(=O)NS(=O)(=O)c4ccc(N[C@H](CCN5CCOCC5)CSc5ccccc5)c(S(=O)(=O)C(F)(F)F)c4)cc3)CC2)C1	mouse ileum enteroid monolayers	pulse-chase lymph lipoprotein secretion	medium	50 % of saturated solubility, 2 h, chylomicron peak interval, oleic acid/2-monoolein	–	fraction of dose absorbed	1.49 ± 0.17%
CC(=O)O	HCT-8	Hoechst nuclei count	–	1 mM, 24 h	baseline: PBS	host cell number	0.953 ± 0.085
OC[C@H]1O[C@@H](c2ccc(Cl)c(Cc3ccc(O[C@H]4CCOC4)cc3)c2)[C@H](O)[C@@H](O)[C@@H]1O	H9c2	CCK-8	–	0.1 µM, added: glucose deprivation	baseline: control	viability	46.2 ± 9.22%
CCC(=O)O	HCT-8	Hoechst nuclei count	–	1 mM, 24 h	baseline: PBS	host cell number	0.852 ± 0.065
Nc1cccc2c1C(=O)N([C@@H]1CCCNC1)C2=O	RAW264.7	–	–	1 µM, added: LPS 10 ng/mL	–	viability	100 ± 2%
O=C(O)c1ccc(NCc2cccc(O)c2)cc1	HGF	cell viability, resazurin	–	72 h, 10% FBS	–	IC50	> 100 µM
COc1ccc(Nc2cnnc3cc(-c4ccc(S(=O)(=O)N5CCN(C)CC5)cc4)ccc23)cc1Cl	C2C12 mouse myoblasts	cytotoxicity	–	–	–	TC50	> 10 µM
O=C(c1ccc2[nH]ccc2c1)N1CCN(S(=O)(=O)c2ccc3[nH]c(=O)oc3c2)CC1	HL-60	resazurin	–	concentration not given, 96 h	–	viability	not toxic
Cc1ccc(C(=O)c2cc(O)c(O)c([N+](=O)[O-])c2)cc1	HCT-8	luminescent ATP cell viability	–	24 h	–	CC50	≥ 100 µM
COc1cccc(CNc2ccc(C(=O)O)cc2)c1	HGF	cell viability, resazurin	–	72 h, 10% FBS	–	IC50	> 100 µM
N[C@@H](CCO)C(=O)O	HCT-8	Hoechst nuclei count	–	1 mM, 24 h	baseline: PBS	host cell number	0.952 ± 0.074
CCCN(CCc1cccs1)[C@H]1CCc2c(O)cccc2C1	RAW264.7	resazurin	DMEM with 10% FBS	–	–	CC50	39.3 ± 9.23 µM
Cn1nc2c(=O)n(C3CC3)cnc2c1[C@](O)(c1cnc(C(F)(F)F)c(Cl)c1)C(F)(F)F	Jurkat	CellTiter-Glo	–	–	–	CC50	> 50 µM
CCOCC(=O)N1CCC[C@H](C(=O)NCc2nc(-c3ccc(C#N)cc3)cs2)C1	Jurkat	CellTiter-Glo	–	72 h	–	CC50	> 50 µM
COc1cccc(CNc2ccc(C(=O)O)cc2)c1OC	HGF	cell viability, resazurin	–	72 h, 10% FBS	–	IC50	> 100 µM
COc1cccc(-c2n[nH]c(SCc3ccccn3)n2)c1OC	CHO-WBL	–	–	63 µg/mL, 19 h, without S9	–	micronuclei per binucleated cell	0.02

Structure (SMILES)	cell line	test	test system	conditions	scale	endpoint	value
COc1ccc(Cl)cc1C(=O)NCCc1ccc(S(=O)(=O)NO)cc1	THP-1 ASC-GFP monocytes	MTT	–	24 h	–	maximum tolerated dose	3.11 µg/mL
CC(CN)C(=O)O (racemic)	HCT-8	Hoechst nuclei count	–	1 mM, 24 h	baseline: PBS	host cell number	1.02 ± 0.016
CN1CCN(c2ccc(-c3ccc4nncc(Nc5ccc(OC(F)(F)F)cc5)c4c3)cc2)CC1	C2C12 mouse myoblasts	cytotoxicity	–	–	–	TC50	0.85 µM
CN1CCC[C@@H](N2C(=O)c3cccc(N)c3C2=O)C1	RAW264.7	–	–	1 µM, added: LPS 10 ng/mL	–	viability	100 ± 2%
COc1ccn2c(Nc3ccccc3F)c(-c3ccncn3)nc2c1	MDCK-II wild type	–	–	10 µM, 2 h, added: elacridar 2 µM	–	Papp A-B	35.9 ×10⁻⁶ cm/s
O=C(O)[C@@H]1CCCCN1	HCT-8	Hoechst nuclei count	–	1 mM, 24 h	baseline: PBS	host cell number	0.958 ± 0.068
Cc1cc(C(=O)NC(C)(C)COc2cccc3c2C(N)=NS(=O)(=O)N3)cc(C)n1	human peripheral blood lymphocytes	CBPI, preliminary test	–	2000 µg/mL, 4 h, added: rat liver S9	baseline: vehicle control	cytotoxicity	10%
COc1ccc(CNc2ccc(C(=O)O)cc2)cc1	HGF	cell viability, resazurin	–	72 h, 10% FBS	–	IC50	> 100 µM
CC[C@@](N)(c1cnc(C(F)(F)F)c(Cl)c1)c1c2ncn(C3CC3)c(=O)c2nn1C	Jurkat	CellTiter-Glo	–	–	–	CC50	> 50 µM
CCn1c(=O)/c(=C2\Sc3cc(Cl)ccc3N2C)s/c1=C\c1scc[n+]1Cc1ccccc1	MYBPC3 iPSC-cardiomyocytes	cytotoxicity	–	–	–	EC50	73.8 µM
COc1cc2ncnc(Nc3ccc(Oc4ccccc4)c(C)c3C)c2cc1OC.Cl	SK-MEL-2 (NRAS Q61R)	resazurin	–	concentration not given, 72 h, added: trametinib 0 nM	–	viability fraction	0.875 and 0.617 and 0.987 and 0.905 and 0.946 and 0.886 and 0.918
O=c1c(O)c(-c2ccc(O)c(O)c2)oc2cc(O)cc(O)c12	MDBK	MTT	–	256 µg/mL	–	cytotoxicity	not toxic
COCC(=O)N1CCC[C@H](C(=O)NCc2nc(-c3ccc(C)cc3)cs2)C1	Jurkat	CellTiter-Glo	–	72 h	–	CC50	> 50 µM
CC(C)=CCC[C@@]1(C)C(CC[C@H]2[C@]3(C)CC[C@H](O)C(C)(C)O[C@H]3CC[C@@]2(C)O)=C(C)CC[C@H]1O	KB-C2 (P-gp overexpressing)	cell viability, MTT	DMEM with 10% bovine serum	72 h	–	IC50	> 50 µM
C/C(O)=C(\C#N)C(=O)Nc1ccc(C(F)(F)F)cc1	Jurkat	–	culture medium	10 µM, 48 h	–	free drug concentration	2600 nM
COc1cccc2c1C(=O)c1c(O)c3c(c(O)c1C2=O)C[C@@](O)(C(=O)CO)C[C@@H]3O[C@H]1C[C@H](N)[C@H](O)[C@H](C)O1	RAW264.7	cytotoxicity, MTT	–	–	–	IC50	0.25 ± 0.03 µM
Cc1cc(Nc2ccc(S(F)(F)(F)(F)F)cc2)n2nc(C(C)(F)F)nc2n1	Jurkat	–	culture medium	5 µM, 48 h	–	free drug concentration	600 nM
COc1ccccc1CNc1ccc(C(=O)O)cc1	HGF	cell viability, resazurin	–	72 h, 10% FBS	–	IC50	> 100 µM
NC(N)=O	HCT-8	Hoechst nuclei count	–	1 mM, 24 h	baseline: PBS	host cell number	0.953 ± 0.054
O=C(O)c1ccc(NCc2ccc(Cl)cc2)cc1	HGF	cell viability, resazurin	–	72 h, 10% FBS	–	IC50	> 100 µM
Cc1cc(C)c(CNC(=O)c2cc(Cl)c3c(c2C)O[C@@](C)([C@H]2CC[C@H](N(C)C)CC2)O3)c(=O)[nH]1	Caco-2	–	–	10 µM	–	efflux ratio	51.3
Cc1ccc(CNC(=O)Cn2cc(CSc3nc4ccccc4[nH]3)nn2)cc1	HEK293	MTT	–	7.81 ppm	–	viability	48.9%
O=C(O)c1ccc(NCc2cccc(O)c2O)cc1	HGF	cell viability, resazurin	–	72 h, 10% FBS	–	IC50	> 100 µM
C[C@H]1O[C@@H](O[C@H]2[C@@H](O)C[C@H](O[C@H]3[C@@H](O)C[C@H](O[C@H]4CC[C@@]5(C)[C@H](CC[C@@H]6[C@@H]5C[C@@H](O)[C@]5(C)[C@@H](C7=CC(=O)OC7)CC[C@]65O)C4)O[C@@H]3C)O[C@@H]2C)C[C@H](O)[C@@H]1O	MDCK-II wild type	–	–	–	–	Papp A-B	1.5 ×10⁻⁶ cm/s
Cc1ccc(Nc2cnnc3ccc(-c4ccc(N5CCCN(C)CC5)cc4)cc23)cn1	C2C12 mouse myoblasts	cytotoxicity	–	–	–	TC50	7.8 µM
COC(=O)[C@@H](N)Cc1ccc(O)cc1	HCT-8	Hoechst nuclei count	–	1 mM, 24 h	baseline: PBS	host cell number	1.01 ± 0.043

Repeated from above:
Structure (SMILES)	cell line	test	test system	conditions	scale	endpoint	value
OC[C@H]1O[C@@H](c2ccc(Cl)c(Cc3ccc(O[C@H]4CCOC4)cc3)c2)[C@H](O)[C@@H](O)[C@@H]1O	H9c2	CCK-8	–	0.1 µM, added: glucose deprivation	baseline: control	viability	46.2 ± 9.22%
CCC(=O)O	HCT-8	Hoechst nuclei count	–	1 mM, 24 h	baseline: PBS	host cell number	0.852 ± 0.065
Nc1cccc2c1C(=O)N([C@@H]1CCCNC1)C2=O	RAW264.7	–	–	1 µM, added: LPS 10 ng/mL	–	viability	100 ± 2%
O=C(O)c1ccc(NCc2cccc(O)c2)cc1	HGF	cell viability, resazurin	–	72 h, 10% FBS	–	IC50	> 100 µM
COc1ccc(Nc2cnnc3cc(-c4ccc(S(=O)(=O)N5CCN(C)CC5)cc4)ccc23)cc1Cl	C2C12 mouse myoblasts	cytotoxicity	–	–	–	TC50	> 10 µM
